# Measured values from different studies.
# Compare with care: the assays were run in different laboratories. ± marks the error that the study gave.
Compound,test,test system,setting,quantity,value
CC(C)C[C@H](NC(=O)[C@@H](CCCCNC(=O)CCCCCNC(=O)CN1CCN(CC(=O)O)CCN(CC(=O)O)CCN(CC(=O)O)CC1)NC(=O)[C@H](Cc1ccc(O)cc1)NC(=O)[C@H](CO)NC(=O)[C@H](Cc1c[nH]c2ccccc12)NC(=O)[C@H](Cc1cnc[nH]1)NC(=O)[C@@H]1CCC(=O)N1)C(=O)N[C@@H](CCCNC(=N)N)C(=O)N1CCC[C@H]1C(=O)NCC(N)=O [indium-111 labelled],,"female athymic nude mouse, tumor","intravenous, 0.037 MBq, 0.5 h",tissue uptake,1.76 ± 0.58 %ID/g
CCCC[C@H](NC(=O)CNC(=O)CNC(=O)CN1CCN(CC(=O)O)CCN(CC(=O)O)CCN(CC(=O)O)CC1)C(=O)N[C@H]1CC(=O)NCCCC[C@@H](C(N)=O)NC(=O)[C@H](Cc2c[nH]c3ccccc23)NC(=O)[C@H](CCCNC(=N)N)NC(=O)[C@@H](Cc2ccccc2)NC(=O)[C@H](Cc2c[nH]cn2)NC1=O [lutetium-177 labelled],,"C57 mouse, female, liver","intravenous, 0.037 MBq, 0.5 h",tissue uptake,1.61 ± 0.25 %ID/g
CN1C(=O)[C@@H](Cc2ccc(O)cc2)NC(=O)CNC(=O)[C@H](Cc2ccc3ccccc3c2)NC(=O)[C@H](CCCNC(=N)N)NC(=O)[C@H]1CCCNC(=O)c1ccc(CNC(=O)CN2CCN(CC(=O)O)CCN(CC(=O)O)CCN(CC(=O)O)CC2)cc1 [gallium-68 labelled],extrapolated to adult male,"C57BL/6 mice, adrenals",,absorbed dose coefficient,0.0147 mGy/MBq
CCCC[C@H](NC(=O)COCCOCCNC(=O)CN1CCN(CC(=O)O)CCN(CC(=O)O)CC1)C(=O)N[C@H]1CC(=O)NCCCC[C@@H](C(N)=O)NC(=O)[C@H](Cc2c[nH]c3ccccc23)NC(=O)[C@H](CCCNC(=N)N)NC(=O)[C@@H](Cc2ccccc2)NC(=O)[C@H](Cc2c[nH]cn2)NC1=O [copper-64 labelled],,"C57 mice, spleen","intravenous, 0.37 MBq, 0.5 h",tissue uptake,1.88 ± 0.67 %ID/g
N=C(N)NCCC[C@@H]1NC(=O)[C@H](CCCCNC(=O)CCC(C(=O)O)N2CCCN3CCN(CCCN(CC(=O)O)CC3)CC2)NC(=O)[C@@H](Cc2ccc(O)cc2)NC(=O)[C@H](CC(=O)O)NC(=O)CNC1=O (stereo partly shown) [copper-64 labelled],,SCID mouse,"intravenous, dose not given, 24 h",dose excreted,94.7 ± 3.6%
CCCC[C@H](NC(=O)CNC(=O)CNC(=O)CN1CCN(CC(=O)O)CCN(CC(=O)O)CC1)C(=O)N[C@H]1CC(=O)NCCCC[C@@H](C(N)=O)NC(=O)[C@H](Cc2c[nH]c3ccccc23)NC(=O)[C@H](CCCNC(=N)N)NC(=O)[C@@H](Cc2ccccc2)NC(=O)[C@H](Cc2c[nH]cn2)NC1=O [technetium-99m labelled],,"C57 mouse, skin","iv, 0.037 MBq, 24 h",tissue uptake,0.12 ± 0.12 %ID/g
CC(C)[C@@H](NC(=O)[C@@H](C)c1cccc(C(=O)c2ccccc2)c1)C(=O)N[C@H](CCC(=O)O)C(=O)N[C@@H](C(=O)N[C@H](CCC(=O)O)C(=O)O)C(C)C,,water,,minimum gelation concentration,≥ 5 mM
CC(C)C[C@H](NC(=O)[C@H](Cc1ccc(O)cc1)NC(=O)[C@H](CO)NC(=O)[C@H](Cc1c[nH]c2ccccc12)NC(=O)CNC(=O)[C@H](CCCCN)NC(=O)[C@@H](N)Cc1c[nH]c2ccccc12)C(=O)N[C@@H](Cc1c[nH]c2ccccc12)C(=O)N[C@H](C(=O)N[C@@H](CCC(N)=O)C(=O)N[C@@H](CCC(N)=O)C(=O)N[C@@H](C)C(=O)NCC(=O)NCC(=O)NCC(=O)N[C@@H](CO)C(=O)N[C@@H](CSC1CC(=O)N(CCNC(=O)CCCCCN2C(=CC=C3CCCC(C=CC4=[N+](CCCCS(=O)(=O)O)c5ccc(S(=O)(=O)[O-])cc5C4(C)C)=C3Oc3ccc(S(=O)(=O)O)cc3)C(C)(C)c3cc(S(=O)(=O)O)ccc32)C1=O)C(N)=O)[C@@H](C)O (stereo partly shown),RP-HPLC,mouse serum,"30 µM, 37 °C",half-life,5.1 h
CC(C)C[C@H](NC(=O)C[C@H](O)[C@H](CC(C)C)NC(=O)[C@H](Cc1c[nH]cn1)NC(=O)CNC(=O)[C@@H](NC(=O)[C@H](C)NC(=O)[C@H](Cc1c[nH]c2ccccc12)NC(=O)[C@H](CCC(N)=O)NC(=O)[C@@H](Cc1ccccc1)NC(=O)CCOCCOCCOCCNC(=O)CN1CCN(CC(=O)O)CCN(CC(=O)O)CC1)C(C)C)C(N)=O [gallium-68 labelled],radio-HPLC,fetal bovine serum,"1.9 nM, 2 h, 37 °C",remaining parent,80.6%
N=C(N)NCCC[C@@H]1NC(=O)[C@H](CCCCNC(=O)CNC(=O)CNC(=O)CNC(=O)CC[C@H](NC(=O)CNC(=O)CNC(=O)CNC(=O)CC[C@H](NC(=O)CN2CCN(CC(=O)O)CCN(CC(=O)O)CCN(CC(=O)O)CC2)C(=O)NCC(=O)NCC(=O)NCC(=O)N[C@@H](CCC(=O)NCC(=O)NCC(=O)NCC(=O)NCCCC[C@@H]2NC(=O)[C@@H](Cc3ccccc3)NC(=O)[C@H](CC(=O)O)NC(=O)CNC(=O)[C@H](CCCNC(=N)N)NC2=O)C(=O)NCC(=O)NCC(=O)NCC(=O)NCCCC[C@@H]2NC(=O)[C@@H](Cc3ccccc3)NC(=O)[C@H](CC(=O)O)NC(=O)CNC(=O)[C@H](CCCNC(=N)N)NC2=O)C(=O)NCC(=O)NCC(=O)NCC(=O)NCCCC[C@@H]2NC(=O)[C@@H](Cc3ccccc3)NC(=O)[C@H](CC(=O)O)NC(=O)CNC(=O)[C@H](CCCNC(=N)N)NC2=O)NC(=O)[C@@H](Cc2ccccc2)NC(=O)[C@H](CC(=O)O)NC(=O)CNC1=O [indium-111 labelled],,"female athymic nu/nu mice, eyes","intravenous, 4 h",tissue uptake,1.61 ± 1.38 %ID/g

# For quick reference, copied from above:
Compound,test,test system,setting,quantity,value
N=C(N)NCCC[C@@H]1NC(=O)[C@H](CCCCNC(=O)CCC(C(=O)O)N2CCCN3CCN(CCCN(CC(=O)O)CC3)CC2)NC(=O)[C@@H](Cc2ccc(O)cc2)NC(=O)[C@H](CC(=O)O)NC(=O)CNC1=O (stereo partly shown) [copper-64 labelled],,SCID mouse,"intravenous, dose not given, 24 h",dose excreted,94.7 ± 3.6%
